Results from different studies.
A part holds a random share of what one study measured. Positions count from the first letter of the parent shown.

Sample 1
Target: ABI1, truncated, D143A, DHFR fusion (Arabidopsis thaliana)
Method: DHFR PCA, deep sequencing
Medium: yeast
Notes: methotrexate growth selection, single substitutions
Together with: (+)-ABA 0 µM
Reference: wild-type fitted maximum
Reading: higher = stronger binding
Parent: PYL1, truncated, DHFR fusion (Arabidopsis thaliana); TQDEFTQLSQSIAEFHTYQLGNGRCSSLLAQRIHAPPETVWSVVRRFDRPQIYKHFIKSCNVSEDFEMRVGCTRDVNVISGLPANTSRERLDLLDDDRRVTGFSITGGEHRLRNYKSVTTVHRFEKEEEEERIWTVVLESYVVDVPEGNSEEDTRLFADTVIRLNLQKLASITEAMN
Substitution | relative binding score
F103A | -4.41%
C25E | 0.959%
L93H | -1.39%
D97C | 4.47%
R155W | 1.32%
F157T | 5.61%
E38F | -8.01%
R32P | 4.8%
K58V | -1.64%
R132T | 36.5%
F157Q | 3.72%
R99T | -0.427%
D65C | 8.33%
R123Q | 58.7%
E130Y | 4.73%
E125V | 38.8%
E89F | 4.28%
V118L | -2.05%
V142R | -2.02%

Sample 2
Target: Interferon regulatory factor 5, full length, phosphomimetic (IRF5, Homo sapiens, UniProt Q13568-2, residues 1-514, S451D/S453D/S456D/S462D)
Method: protein-binding microarray
Molecule type: double-stranded DNA, one strand shown
Medium: in vitro
Concentration: 940 nM top
Notes: 60-bp whole probe
Together with: salmon DNA 0.4 mg/ml
Reference: random background probes
Reading: higher = stronger binding
Constant ends, left off below: GCCTAGCAC … GTCTTGATTCGCTTGACGCTGCTG
Sequence | fitted relative affinity [z-score]
GCCGGTTCCCTTTTCCTGACGTGCTAG | 0.912
GTAGGTTTCCTACTGCTTTAGTGCTAG | 0.284
ACTCTTCTTTTTTTTCTTTAGTGCTAG | 1.9
GACGAACCGAGACTGGAGACGTGCTAG | 0.47
GACGATATCAGTATCGAGGCGTGCTAG | 1.36
GATGGTATCCTACTGCTGACGTGCTAG | 0.0427
TTAGGTATCGGTATCGGATAGTGCTAG | 10.7
GATGGACTGGACTTTCGGGACGTGCTA | 0.153
GACGGTTTCCTTTCCCTGACGTGCTAG | 2.43
TCACGTGTTTTTCTCCTACTGTGCTAG | 1.33
CACACCCGGCTCCTCTGCCAGTGCTAG | -0.104
GACGATTTCAGTTCCGTGACGTGCTAG | 0.863
ACGTCTTCATGTTTTTTTCTGTGCTAG | 1.07
GACGGACTGGGTATCGGGAGGTGCTAG | 0.726
TCATCTCTGGTCTTTGTACTGTGCTAG | 1.33
CTCTTTCTCTGCTACCCTTTGGTGCTA | 2.45
TCAATTTTGGTTTTCCTACTGTGCTAG | 1.39
GACGAACTGGGGTATCGATACGTGCTA | 3.33
TTAGATATCCTTATCCTTTAGTGCTAG | 0.158

Sample 3
Target: Ras GTPase-activating protein-binding protein 1, full length (G3BP1, Homo sapiens, UniProt Q13283)
UniProt Q13283, sequence (whole entry, looked up): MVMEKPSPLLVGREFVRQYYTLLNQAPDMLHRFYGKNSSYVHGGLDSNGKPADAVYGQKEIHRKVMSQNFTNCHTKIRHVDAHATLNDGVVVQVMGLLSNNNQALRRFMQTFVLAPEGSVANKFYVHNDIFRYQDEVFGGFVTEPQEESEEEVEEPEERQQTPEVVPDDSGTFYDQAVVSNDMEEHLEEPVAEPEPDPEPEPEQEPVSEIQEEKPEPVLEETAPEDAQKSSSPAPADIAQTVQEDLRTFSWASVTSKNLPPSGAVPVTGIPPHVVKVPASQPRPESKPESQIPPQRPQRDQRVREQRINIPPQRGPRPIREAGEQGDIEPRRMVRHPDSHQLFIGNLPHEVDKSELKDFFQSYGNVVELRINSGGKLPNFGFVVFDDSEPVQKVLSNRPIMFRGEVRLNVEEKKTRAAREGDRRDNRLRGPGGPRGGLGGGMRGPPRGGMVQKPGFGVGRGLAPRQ
Method: RNA Bind-n-Seq
Molecule type: RNA
Medium: in vitro
Concentration: 200 nM
Notes: whole 134-nt RNA, ends assumed
Together with: 150 mM KCl
Reference: input library
Reading: higher = stronger binding
Constant ends, left off below: GGGAGUUCUACAGUCCGACGAUC … UGGAAUUCUCGGGUGUCAAGG
Sequence | log2 enrichment
CACAGACAACACGCACUCACACAGACACAGAGGGAAGGGGUUGGGAUGGGGACAGGGUGCACAGCAGGGCGGGGUAGGACCCCAGCCCCU | 1.32
AGUCCUGUGCUACACAUCGUAUGUACCGAAUCGGGUGGGUUUUUUUGGGUUUUUGGGAAAGUAUUAUGUUACGCCGUUCGGAUCUGCACU | -0.206
UGGCCCUGGUGGCAUGCGGGGAGGAAGAGGUGGCCUCAUGGAUCGUGGUGGUCCCGGUGGAAUGUUCAGAGGUGGCCGUGGUGUAGACAG | 0.259
CUCAAGUCCUGUGCUACACAUCGUAUGUACCGAAUCGGUUUUUUUGGAGGUGGAAAGUAUUAUGUUACGCCGUUCGGAUCUGCACUUCCA | -0.408
CUCAAGUCCUGUGCUACACAUCGUAUGUACCGAAUCGGAAAAAGGUUUGGUGGAAAGUAUUAUGUUACGCCGUUCGGAUCUGCACUUCCA | -0.613
UGUGCUACACAUCGUAUGUACCGAAUCGGGGCCCCCCCGGGCCCCCCCGGGGCCCCCCCGGGAAAGUAUUAUGUUACGCCGUUCGGAUCU | -1.7
UGGGAGGUGGAUUUUGUUUAUUUUUUUAGCUCAUUUCCAGGGGUGGGAAUUUUUUUUUAAUAUGUAUCAUGAAUAAAGUUGUUUUUGAAA | -0.00157
UCAAGUCCUGUGCUACACAUCGUAUGUACCGAAUCGGGCCGGGGCCGGGCCGGGGAAAGUAUUAUGUUACGCCGUUCGGAUCUGCACUUC | 0.275
GUCCUGUGCUACACAUCGUAUGUACCGAAUCGGAAAAAGGGGAAAAAGGGGAAAAAGGGAAAGUAUUAUGUUACGCCGUUCGGAUCUGCA | -0.228

Sample 4
Target: CCNF, cyclin fold, Cln2 fusion (human)
Method: yeast growth competition, sequencing
Medium: yeast
Notes: strong parent motif
Reference: not given
Reading: higher = stronger binding
Parent: SAMHD1 docking peptide (human); ASKSRVQLFKDDP
Substitution | normalised enrichment score
S4Q | 1.29
V6L | 0.692
R5A | 0.106
L8K | 0.288
L8F | -0.0435
S2I | 2.12
V6T | 0.958
Q7H | 0.631
L8Y | 0.205
S2T | 1.56
R5P | -0.172
S4D | 0.114
K3R | 2.08
V6S | -0.3
Q7Y | 0.563
S4G | 2.03
D11Y | 1.25
K10D | -0.0454

Some of these lines once more (sample 2):
Sequence | fitted relative affinity [z-score]
CACACCCGGCTCCTCTGCCAGTGCTAG | -0.104
GACGATTTCAGTTCCGTGACGTGCTAG | 0.863
ACGTCTTCATGTTTTTTTCTGTGCTAG | 1.07
GACGGACTGGGTATCGGGAGGTGCTAG | 0.726
TCATCTCTGGTCTTTGTACTGTGCTAG | 1.33
CTCTTTCTCTGCTACCCTTTGGTGCTA | 2.45
TCAATTTTGGTTTTCCTACTGTGCTAG | 1.39
